Experimental data gathered from unrelated publications.
Numbered parts are unrelated; each lists some results of a single study. Substitutions count along the parent as printed.

Study 1 — technique: RNA Bind-n-Seq; form: RNA; sample: in vitro; tested at: 200 nM; setting: whole 134-nt RNA, ends assumed; with: 150 mM KCl; reference: input library; reading: higher = stronger binding
Target: Fragile X messenger ribonucleoprotein 1, C-terminal low-complexity region (Fmr1, Mus musculus, UniProt P35922)
Constant ends, left off below: GGGAGUUCUACAGUCCGACGAUC … UGGAAUUCUCGGGUGUCAAGG
| Oligonucleotide | log2 enrichment |
| --- | --- |
| CUGUGCUACACAUCGUAUGUACCGAAUCGGGCCCCCCCGGGCCCCCCCGGGCCCCCCCGGGGAAAGUAUUAUGUUACGCCGUUCGGAUCU | -1.35 |
| ACUAUGCAGGUGGGCAUCUUUGGGAAGUGGGGCAAGGGGGGGAUAGGGAGGGGGGUAACACUUUGGGAACAGGUGGUCCCAGGUCGUUUC | 0.705 |
| CUCAAGUCCUGUGCUACACAUCGUAUGUACCGAAUCGGGGUUGGGUUGGGUUGGAAAGUAUUAUGUUACGCCGUUCGGAUCUGCACUUCC | 0.461 |
| CACAGACAACACGCACCCACACAGACACAGAGGGAAGGGGUUGGGAUGGGGAGAGGGUGCACAGCAGGGCGGGGUAGGACCCCAGCCCCU | 1.2 |
| UGGCCCUGGUGGCAUGCGGGGAGGAAGAAGUGGCCUCAUGGAUCGUGGUGGUCCCGGUGGAAUGUUCAGAGGUGGCCGUGGUGGAGACAG | 0.0888 |
| AGUCCUGUGCUACACAUCGUAUGUACCGAAUCGGAAAAAGGUUUUUUUGGAAAAAGGAAAGUAUUAUGUUACGCCGUUCGGAUCUGCACU | -1.55 |
| GCAGGAAGUAAAAACAAAUGGAACUGCUUCGGAUAGUGGCAGGGGUGGGGGUUGCUAAGGAAAGGGUGGGAUGGGAGUGGGUAAAGAGUU | 0.0601 |
| GUCCUGUGCUACACAUCGUAUGUACCGAAUCGGGGAGGGGUUUUUUUGGGGAAAGGGGAAAGUAUUAUGUUACGCCGUUCGGAUCUGCAC | 0.717 |
| CAAGUCCUGUGCUACACAUCGUAUGUACCGAAUCGGAAAAAGGUUUUUUUGGUGGAAAGUAUUAUGUUACGCCGUUCGGAUCUGCACUUC | -0.856 |
| GCAGGAAGUAAAAACAAAUGGAAAUGCUUCGGAUAGUGGCAGGGGUGGGGGUUGCUAAGGAAUGGGUGGGAUGGGAGUGGGUAAAGAGUU | 0.228 |

Study 2 — technique: RNAcompete; form: RNA; sample: in vitro; tested at: 20 nM; setting: 7-mer, probes averaged, single round; reference: mean of 7-mers; reading: higher = stronger binding
Target: PABPC1L2, full length, GST fusion (mouse, UniProt A0ABA7IW68)
Construct (chain): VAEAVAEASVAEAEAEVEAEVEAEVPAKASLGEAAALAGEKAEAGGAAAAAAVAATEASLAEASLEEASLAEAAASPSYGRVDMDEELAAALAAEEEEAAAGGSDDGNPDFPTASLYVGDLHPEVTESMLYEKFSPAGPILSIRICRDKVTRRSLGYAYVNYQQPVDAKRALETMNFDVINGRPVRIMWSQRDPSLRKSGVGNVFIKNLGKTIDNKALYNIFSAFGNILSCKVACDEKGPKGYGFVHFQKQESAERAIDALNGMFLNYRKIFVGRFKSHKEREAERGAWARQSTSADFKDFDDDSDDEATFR
| Oligonucleotide | 7-mer Z-score |
| --- | --- |
| GAUUCGA | -0.307 |
| GGAUCGC | -0.0681 |
| UUUAAUA | -0.159 |
| UGCCGAG | -0.101 |
| GUUUCCG | -0.443 |
| CAGACAC | 0.111 |
| CACCACG | -0.122 |
| UUGCGCC | -0.44 |
| CGAUAUU | -0.246 |
| GCAGGCG | 0.256 |
| CGUUCAU | -0.398 |
| GGGGUUG | 0.164 |

Study 3 — technique: RNA Bind-n-Seq; form: RNA; sample: in vitro; tested at: not given; setting: RNA with constant flanks, ends assumed; reference: input RNA pool; reading: higher = stronger binding
Target: RING finger protein unkempt homolog, zinc fingers 1-6, GST-SBP tag (UNK, Homo sapiens, UniProt Q9C0B0, residues 30-357)
Constant ends, left off below: GGGAGUUCUACAGUCCGACGAUC … CAACAGAGGAUUGAGCAUCA
Construct (chain): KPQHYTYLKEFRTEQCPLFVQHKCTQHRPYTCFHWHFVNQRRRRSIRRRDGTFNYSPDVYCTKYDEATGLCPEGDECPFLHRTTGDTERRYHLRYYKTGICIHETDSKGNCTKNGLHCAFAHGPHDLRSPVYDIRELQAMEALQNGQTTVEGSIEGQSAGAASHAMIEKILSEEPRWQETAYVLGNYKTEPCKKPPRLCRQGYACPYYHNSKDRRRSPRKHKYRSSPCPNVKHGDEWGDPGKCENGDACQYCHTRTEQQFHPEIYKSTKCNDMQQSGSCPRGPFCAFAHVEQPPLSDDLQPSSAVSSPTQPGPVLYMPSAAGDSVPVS
| Oligonucleotide | bound/input enrichment [ratio] |
| --- | --- |
| AAUCUCAUGAAAGCAGAACAGAUGCAUCAAAGUUUUGUGGCUGAAACAAGUCAGCGCAUCCGUAAGUUACAGGAAGACACUUCUGCUCACCAGAAUGUUGUUGCUGAAACCUUAAGUGCC | 0.237 |
| UUUGGUGCCAUUGGUUUCUUCUGGGUUGAGUGAGAUGUUGGAUAUUGCUAUCAAUCGCAGCCGUCUUUCCCCUGUGUGAGGCUGAAGCCUCAGAUUCCUUCUAAACACAGCUAUCUAGAG | 0.215 |
| AUGAUAAUGGCAUCAGCUGCUAAGGAAUUUAAAAUGGACAACUUUUCACCUAAAGCUGGCACCCGCAAAUUGCAACAGACAGUACCAGCUGAUGCAUCUCCUGAUUCUAAGUGUCCUAUA | 0.0972 |
| ACCGAUUUAUAUGACAUAAAACGUGCAGUUGUUCAUACCCAUCUUCUUAACCCUGAGUGGUCCGUGAAUUACUUUGGGUCCUUAUCAGUUGAAGAUUCCCUAGAAUGCCUCAGAGCCAUG | 0.195 |
| CUUCAGCUGGUGCUUGUCUGGCUGGGUGAAGUGCUAGGUGUCAUUGGGGACUGUCCAGAGCCCGUUCAGCGCUCCUUCCUGGUGGCUAGUGUUCUGCCUGGCCCCGAUGGCAACAUUAAC | 0.0896 |
| GGUCCACAUACUCCCCAUCGGGUGCCUGGACCUUGGGGUUCCCCCGAACCUUUUCUGCUCUACCGGCCAGCUCCACCAUCCUAUGGGAGGGGAGGGGAGGUCCGAGGAUCCUUGUACAGA | 0.105 |
| AGGGAAGACUUGAUCUGUGGACUUUUGAAAGCAACUUGAGGAAAAACACAUAACAGAAUCUACCGGUGUGGACAAUAUGUGAUAUUGCUAAAUAAUGUCAAGUAGGAAAUAAAAGAGACU | 1.3 |

Study 4 — target: UBE2G2 UBC core domain (UniProt P60604); technique: yeast two-hybrid; sample: yeast; setting: mostly zero background; reference: not given; reading: higher = stronger interaction
B1: ANKIB1 RING domain (UniProt Q9P2G1); chain LSPGDLDTSLCDICMCSISVFEDPVDMPCGHDFCRGCWESFLNLKIQEGEAHNIFCPAYDCFQLVPVDIIE
B2: PHF7 RING domain (UniProt Q9BWX1); chain IQHGHVGEESCILCCEDLSQQSVENIQSPCCSQAIYHRKCIQKYAHTSAKHFFKCPQCNNRKEFPQEML
B3: PEX2 RING domain (UniProt P28328); chain DNTLATSGKECALCGEWPTMPHTIGCEHIFCYFCAKSSFLFDVYFTCPKCGTEVHSLQPLK
B4: TRIM38 RING domain (UniProt O00635); chain STKKMMEEATCSICLSLMTNPVSINCGHSYCHLCITDFFKNPSQKQLRQETFCCPQCRAPFHMDSLRP
B5: RFPL2 RING domain (UniProt O75678); chain MAALFQEASSCPVCSDYLEKPMSLECGCAVCLKCINSLQKEPHGEDLLCCCSSMVSRKNKIRR
Construct (chain): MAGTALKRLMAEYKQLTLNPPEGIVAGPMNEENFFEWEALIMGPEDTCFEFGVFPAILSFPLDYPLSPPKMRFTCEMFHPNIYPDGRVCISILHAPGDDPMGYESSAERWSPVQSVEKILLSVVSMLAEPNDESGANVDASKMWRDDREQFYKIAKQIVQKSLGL
| Sequence | lacZ reporter activity |
| --- | --- |
| B1 (ANKIB1 RING domain) | 0 |
| B2 (PHF7 RING domain) | 0 |
| B3 (PEX2 RING domain) | 0 |
| B4 (TRIM38 RING domain) | 0 |
| B5 (RFPL2 RING domain) | 0 |
| QLQDEEDDSLCRICMDAVIDCVLLECGHMVTCTKCGKRMSECPICRQYVVRAVHVF (RNF34 RING domain (UniProt Q969K3)) | 0 |

Study 5 — technique: DHFR PCA, deep sequencing; sample: yeast; with: (+)-ABA 0 µM; reference: wild-type fitted maximum; reading: higher = stronger binding
Target: ABI1, truncated, D143A, DHFR fusion (Arabidopsis thaliana)
Setting: methotrexate growth selection, single substitutions
Starting sequence: PYL1, truncated, DHFR fusion (Arabidopsis thaliana); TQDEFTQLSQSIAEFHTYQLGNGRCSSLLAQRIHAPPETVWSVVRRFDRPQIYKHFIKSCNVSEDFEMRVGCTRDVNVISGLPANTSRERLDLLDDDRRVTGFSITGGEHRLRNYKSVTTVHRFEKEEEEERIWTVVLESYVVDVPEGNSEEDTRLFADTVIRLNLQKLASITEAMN
| Variant | relative binding score [%] |
| --- | --- |
| F103E | -2.03 |
| K126M | 51 |
| H122A | -0.00787 |
| H16N | 3.72 |
| P50V | 18.3 |
| R99S | -1.42 |
| L20N | 24.8 |
| T154C | -5.07 |
| S104M | 2.68 |
| T120G | -9.49 |
| S42A | 36.3 |
| N85G | 24.1 |
| C60K | -11.7 |
| K58Y | 2.75 |
| D96Y | 6.35 |
| T39V | 52 |
| S150C | 11.3 |

Study 6 — technique: RNA Bind-n-Seq; form: RNA; sample: in vitro; tested at: 365 nM; reference: no-protein control; reading: higher = stronger binding
Target: RNA binding protein fox-1 homolog 2, RRM domain, GST-SBP tag (RBFOX2, Homo sapiens, UniProt O43251-10, residues 100-194)
Setting: natural RNA segment, single round, ends assumed
Constant ends, left off below: GGGAGUUCUACAGUCCGACGAUC … UGGAAUUCUCGGGUGCCAA
Construct (chain): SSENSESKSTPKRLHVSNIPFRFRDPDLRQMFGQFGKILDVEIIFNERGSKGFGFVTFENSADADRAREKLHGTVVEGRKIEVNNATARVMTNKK
| Oligonucleotide | RBNS enrichment (R) |
| --- | --- |
| GCAAUCUCUAUUUCAUUAUCCUGUAAGGAAUAAAUAAGACAUUCAAUAUUGACCUAACUAACUUGAAUGUCUCAUAUGAUGAAUCAAUAAACUAUGUGCACAUAGCUUUG | 0.331 |
| ACAUUUAUUUUAUGGUUUCUUGUCAAGAUUUAAUCUAAAUAUUUUAAAAGCAAUUCCAAGGAAGCAUACAAGAUUUUCUUUUAAAAUAACAAAUUUAAUAUAAAUCAAAG | 0.688 |
| UGUCAUCUGAUGCAUUUGGACCAUAUGCUGCCAGACUGCAGAACGGGGGAGCCGGGGCUCAGGGCCCCUGACUGCAUGGUGCAUGAGUGAUCUCAGCCUAGCGAUGCCGC | 2.84 |
| ACACUGUGGAAUUUCUUCAAGGGAGCUGCCGGCCGGCGCAGAACCCCCAGGAGCACAGGUCUCUCCGGGCCGCUGUCCUGCGUAACUGUUCUCCAGAGCGCCAGCCAGCC | 0.314 |
| UCCUGUUUUUAAAACAGUUUUUCAAGAUAUUAUUGCUUAAUAUGUUCAUUAUUGAUGUUUUUAUAGUGAUCCAGCCACUCUAGCUUUAAGAAUAGCUAGGUUGUAUUAAA | 1.28 |
